Earlier results as cited in several papers.
Protocols differ between the studies behind these lines.

`Cc1ncc(-c2cc(Cl)ccc2F)cc1-n1c(=O)n(CC(N)=O)c2ccccc21` has an IC50 of greater than 10 µM (TGFBR1; cell-based).
For `CCCCCCCCNC(C)C(O)c1ccc(SC(C)C)cc1` (centres unmarked), “mRNA fold change” read 2.92 (MCF7; microarray, item: BHLHE40; concentration not given; baseline: DMSO).
`COc1ccc2cc(OCC3(C(=O)O)CN(C(=O)c4ccc(F)cc4)C3)ccc2c1` gave an IC50 of 3.5 µM (PDE3; Cerep profiling).
Under activity class, `COc1ccc(C2CNC(=O)C2)cc1OC1CCCC1` (centres unmarked) is recorded as “inactive” (Toxoplasma gondii; parasite growth; concentration not given, published screen).
`Cc1nccc(COC(=O)N2C[C@@H]3[C@@H](CNC(=O)c4ccc5[nH]nnc5c4)[C@@H]3C2)n1` gave an IC50 of 8.9 µM (ENPP2; biochemical activity).
The K0.5 of `OC[C@H]1OC(O)[C@H](O)[C@@H](O)[C@@H]1O` (some centres unmarked) is reported as 7 mM (human hexokinase 4; substrate).
With `CO[C@@H](C)c1c(Nc2ccc([C@H](N(C)C(=O)C3CCS(=O)(=O)CC3)C(F)(F)F)cc2)cnc2cc(Cl)nn12` the IC50 was 0.018 µM (MALT1 (human); enzyme activity; low salt).
Under antiparasitic activity, `COc1cc(Cc2cnc(N)nc2N)cc(OC)c1OC` is recorded as “active” (Toxoplasma gondii; parasite growth; concentration not given).

For quick reference, copied from above:
`Cc1ncc(-c2cc(Cl)ccc2F)cc1-n1c(=O)n(CC(N)=O)c2ccccc21` has an IC50 of greater than 10 µM (TGFBR1; cell-based).
